# Published values gathered from unrelated publications.
# Compare with care: the assays were run in different laboratories. ± gives the spread as reported.
# Faah: Fatty-acid amide hydrolase 1 (Faah, Mus musculus, UniProt O08914)
# UniProt O08914, sequence (whole entry, looked up): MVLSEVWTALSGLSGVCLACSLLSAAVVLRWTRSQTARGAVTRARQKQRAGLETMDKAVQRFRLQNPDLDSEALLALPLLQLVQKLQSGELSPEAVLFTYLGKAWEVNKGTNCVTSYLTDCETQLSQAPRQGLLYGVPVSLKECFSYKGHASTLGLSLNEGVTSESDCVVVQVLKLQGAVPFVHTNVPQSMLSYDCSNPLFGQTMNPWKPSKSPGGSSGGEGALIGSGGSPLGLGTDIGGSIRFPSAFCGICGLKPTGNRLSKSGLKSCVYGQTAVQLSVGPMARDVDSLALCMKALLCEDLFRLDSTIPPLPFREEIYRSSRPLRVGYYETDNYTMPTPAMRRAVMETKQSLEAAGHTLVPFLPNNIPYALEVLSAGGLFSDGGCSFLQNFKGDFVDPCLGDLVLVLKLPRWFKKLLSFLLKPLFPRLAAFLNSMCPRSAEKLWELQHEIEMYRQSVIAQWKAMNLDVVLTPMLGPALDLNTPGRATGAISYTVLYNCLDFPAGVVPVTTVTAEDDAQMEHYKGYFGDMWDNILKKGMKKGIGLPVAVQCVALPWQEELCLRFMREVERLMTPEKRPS
# AR: Androgen receptor (AR, Homo sapiens, UniProt P10275)
# UniProt P10275, sequence (whole entry, looked up): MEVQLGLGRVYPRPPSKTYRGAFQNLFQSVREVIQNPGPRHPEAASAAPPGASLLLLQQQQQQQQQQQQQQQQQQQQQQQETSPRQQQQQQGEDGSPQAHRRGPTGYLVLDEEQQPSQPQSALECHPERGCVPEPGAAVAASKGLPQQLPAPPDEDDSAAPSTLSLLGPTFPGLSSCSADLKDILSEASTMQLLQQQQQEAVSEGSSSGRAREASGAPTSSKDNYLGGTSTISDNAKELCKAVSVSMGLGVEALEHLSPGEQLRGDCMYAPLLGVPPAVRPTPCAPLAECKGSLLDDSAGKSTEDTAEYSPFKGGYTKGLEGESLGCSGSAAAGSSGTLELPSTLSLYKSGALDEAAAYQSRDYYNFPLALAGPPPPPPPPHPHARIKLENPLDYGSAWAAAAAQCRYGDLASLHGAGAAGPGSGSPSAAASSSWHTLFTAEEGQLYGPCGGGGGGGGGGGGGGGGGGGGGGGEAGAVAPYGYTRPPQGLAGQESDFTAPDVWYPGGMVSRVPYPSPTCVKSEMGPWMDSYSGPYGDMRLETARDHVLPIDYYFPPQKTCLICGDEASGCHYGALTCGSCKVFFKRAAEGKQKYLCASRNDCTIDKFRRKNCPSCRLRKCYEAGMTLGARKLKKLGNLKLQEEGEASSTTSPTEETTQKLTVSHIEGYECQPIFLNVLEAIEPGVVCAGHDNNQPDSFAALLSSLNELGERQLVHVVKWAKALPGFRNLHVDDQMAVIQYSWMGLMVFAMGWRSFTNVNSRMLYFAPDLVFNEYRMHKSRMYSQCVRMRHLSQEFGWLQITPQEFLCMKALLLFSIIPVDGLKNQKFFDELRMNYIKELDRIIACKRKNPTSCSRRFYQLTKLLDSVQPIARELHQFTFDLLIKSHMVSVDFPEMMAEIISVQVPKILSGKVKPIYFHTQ
# UniProt Q08345, sequence (whole entry, looked up): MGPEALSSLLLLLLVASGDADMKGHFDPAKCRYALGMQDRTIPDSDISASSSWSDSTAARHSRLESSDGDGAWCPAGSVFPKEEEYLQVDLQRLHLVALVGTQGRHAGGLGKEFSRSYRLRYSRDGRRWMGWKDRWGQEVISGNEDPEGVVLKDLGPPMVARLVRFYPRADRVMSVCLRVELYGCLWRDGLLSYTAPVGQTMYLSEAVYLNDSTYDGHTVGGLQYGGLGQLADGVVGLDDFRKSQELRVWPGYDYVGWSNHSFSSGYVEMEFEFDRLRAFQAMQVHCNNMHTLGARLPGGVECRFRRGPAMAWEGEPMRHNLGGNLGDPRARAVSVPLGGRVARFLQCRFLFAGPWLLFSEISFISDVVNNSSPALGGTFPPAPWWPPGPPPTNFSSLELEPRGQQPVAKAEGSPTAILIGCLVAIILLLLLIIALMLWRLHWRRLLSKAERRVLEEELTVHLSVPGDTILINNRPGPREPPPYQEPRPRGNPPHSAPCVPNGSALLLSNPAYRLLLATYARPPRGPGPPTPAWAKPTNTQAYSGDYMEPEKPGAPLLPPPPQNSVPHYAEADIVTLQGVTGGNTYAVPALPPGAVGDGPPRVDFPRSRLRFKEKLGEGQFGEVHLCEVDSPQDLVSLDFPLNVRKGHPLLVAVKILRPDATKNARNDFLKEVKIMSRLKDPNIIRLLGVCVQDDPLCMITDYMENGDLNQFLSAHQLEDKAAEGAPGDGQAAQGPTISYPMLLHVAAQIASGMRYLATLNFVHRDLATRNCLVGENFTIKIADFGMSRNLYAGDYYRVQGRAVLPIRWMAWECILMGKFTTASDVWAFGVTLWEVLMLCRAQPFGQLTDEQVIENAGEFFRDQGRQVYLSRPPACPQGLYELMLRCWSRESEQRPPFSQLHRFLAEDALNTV
# UniProt Q9GZX7, sequence (whole entry, looked up): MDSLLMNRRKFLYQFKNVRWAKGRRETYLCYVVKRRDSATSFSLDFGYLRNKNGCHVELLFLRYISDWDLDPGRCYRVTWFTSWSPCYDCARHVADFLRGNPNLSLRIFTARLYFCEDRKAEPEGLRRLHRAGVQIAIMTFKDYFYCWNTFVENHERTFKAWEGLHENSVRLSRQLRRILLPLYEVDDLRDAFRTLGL
# UniProt O14746, sequence (whole entry, looked up): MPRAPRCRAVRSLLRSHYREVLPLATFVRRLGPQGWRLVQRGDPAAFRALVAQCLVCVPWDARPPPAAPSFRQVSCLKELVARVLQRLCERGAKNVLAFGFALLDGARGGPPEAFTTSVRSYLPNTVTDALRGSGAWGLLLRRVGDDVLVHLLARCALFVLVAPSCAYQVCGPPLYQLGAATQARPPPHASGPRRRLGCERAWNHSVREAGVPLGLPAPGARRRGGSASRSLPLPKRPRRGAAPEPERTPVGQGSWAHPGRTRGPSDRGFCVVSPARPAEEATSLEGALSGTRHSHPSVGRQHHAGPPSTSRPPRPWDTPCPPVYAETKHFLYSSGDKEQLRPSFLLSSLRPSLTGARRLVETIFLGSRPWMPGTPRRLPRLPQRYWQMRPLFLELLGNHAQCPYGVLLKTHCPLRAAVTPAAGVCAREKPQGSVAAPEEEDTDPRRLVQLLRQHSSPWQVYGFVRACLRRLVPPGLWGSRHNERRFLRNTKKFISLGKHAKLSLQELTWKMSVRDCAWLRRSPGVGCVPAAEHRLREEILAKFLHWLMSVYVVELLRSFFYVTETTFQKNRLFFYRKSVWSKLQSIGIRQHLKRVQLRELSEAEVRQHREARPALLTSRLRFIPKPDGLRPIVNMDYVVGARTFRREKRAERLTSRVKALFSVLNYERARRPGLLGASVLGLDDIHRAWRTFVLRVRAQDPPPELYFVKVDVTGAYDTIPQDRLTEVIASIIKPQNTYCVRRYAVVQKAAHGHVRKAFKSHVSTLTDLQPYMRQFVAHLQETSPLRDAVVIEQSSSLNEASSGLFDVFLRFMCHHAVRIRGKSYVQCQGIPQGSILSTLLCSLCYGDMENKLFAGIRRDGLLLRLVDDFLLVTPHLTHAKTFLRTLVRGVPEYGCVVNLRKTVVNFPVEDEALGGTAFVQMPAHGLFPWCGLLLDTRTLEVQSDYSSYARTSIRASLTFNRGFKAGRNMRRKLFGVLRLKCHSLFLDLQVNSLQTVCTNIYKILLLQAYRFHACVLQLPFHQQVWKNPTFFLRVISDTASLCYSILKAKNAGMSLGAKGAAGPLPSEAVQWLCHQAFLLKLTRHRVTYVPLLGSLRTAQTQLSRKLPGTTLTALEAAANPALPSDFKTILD
Compound,target,test,test system,conditions,scale,remaining activity [%]
O=C(Nc1ccc(OC(F)(F)F)cc1)N1CCC(Cc2cccc(Oc3ccc(C(F)(F)F)cn3)c2)CC1,Faah,,"mice, liver","intraperitoneal, 10 mg/kg, 4 h, vehicle DMSO",reference: control,22 ± 2
CC1(C)CCN(Cc2ccc(C(=O)NC[C@]3(O)CCCN(c4cc(NCc5ccccc5)ncn4)C3)c(O)c2)CC1,"DDR1 (Homo sapiens, UniProt Q08345)","kinase activity, radiometric",,"10 µM, together with: 10 µM ATP",,85
CCCCCCCCCCSc1nc2c([nH]1)c(=S)n(C)c(=S)n2C,AR,"reporter gene, antagonist, PSA-luciferase",HeLa-A6,"10 µM, 24 h, together with: 5 nM dihydrotestosterone",reference: maximal activity,85
CN(CC(=O)c1ccc2[nH]c(=O)[nH]c2c1)Cc1ccco1,"Single-stranded DNA cytosine deaminase (AICDA, Homo sapiens, UniProt Q9GZX7)","deaminase activity, inhibitor, alkaline cleavage","293T lysate, His-tagged AID","concentration not given, DMSO 100%",,40.3
CC(=O)c1c(O)c2ccc3ccccc3c2oc1=O,"SYK (Homo sapiens, UniProt P43405)","enzyme activity, inhibitor, ADP-Glo",,5 µM,,72.9 ± 2.7
NC(CNC(CNC(CC(=O)O)C(=O)O)C(=O)O)C(=O)O (stereo not shown),"angiotensin-converting enzyme, rabbit",,,"500 µM, 0 min, Zn-depleted buffer",,53.1 ± 8.4
CC(C)CSc1nc2c([nH]1)c(=S)n(C)c(=O)n2C,AR,"reporter gene, antagonist, PSA-luciferase",HeLa-A6,"10 µM, 24 h, together with: 5 nM dihydrotestosterone",reference: maximal activity,134
CC1(C)COCN1C(=O)n1nnc2c(F)cc(F)cc21,Faah,inhibitor,"mouse, liver","oral, 0.1 mg/kg, 8 h after dose",reference: control,19 ± 9
[N-]=[N+]=N[C@H]1C[C@H](n2cnc3c(=O)[nH]c(N)nc32)O[C@@H]1COP(=O)(O)OP(=O)(O)OP(=O)(O)O,"TERT (Homo sapiens, UniProt O14746)","enzyme activity, stretch PCR",,"10 µM, together with: competing dNTP 10 µM",,3
CCCCCCCCCCCCSc1nc2c([nH]1)c(=S)n(C)c(=O)n2C,AR,"reporter gene, antagonist, PSA-luciferase",HeLa-A6,"10 µM, 24 h, together with: 5 nM dihydrotestosterone",reference: maximal activity,104

# For quick reference, copied from above:
Compound,target,test,test system,conditions,scale,remaining activity [%]
CN(CC(=O)c1ccc2[nH]c(=O)[nH]c2c1)Cc1ccco1,"Single-stranded DNA cytosine deaminase (AICDA, Homo sapiens, UniProt Q9GZX7)","deaminase activity, inhibitor, alkaline cleavage","293T lysate, His-tagged AID","concentration not given, DMSO 100%",,40.3
